{"data": "Published values pooled from the literature", "SLC6A3 W84L": "Sodium-dependent dopamine transporter (SLC6A3, Homo sapiens, UniProt Q01959, W84L)", "UDP-3-O-acyl-N-acetylglucosamine deacetylase C40S": "UDP-3-O-acyl-N-acetylglucosamine deacetylase (Pseudomonas aeruginosa, UniProt P47205, C40S)", "DNA polymerase III PolC-type": "DNA polymerase III PolC-type (Bacillus subtilis, UniProt P13267)", "note": "Lines come from different studies, so protocols differ. ± marks the error that the study gave.", "chain of UniProt Q01959 (whole entry, unmodified, looked up)": "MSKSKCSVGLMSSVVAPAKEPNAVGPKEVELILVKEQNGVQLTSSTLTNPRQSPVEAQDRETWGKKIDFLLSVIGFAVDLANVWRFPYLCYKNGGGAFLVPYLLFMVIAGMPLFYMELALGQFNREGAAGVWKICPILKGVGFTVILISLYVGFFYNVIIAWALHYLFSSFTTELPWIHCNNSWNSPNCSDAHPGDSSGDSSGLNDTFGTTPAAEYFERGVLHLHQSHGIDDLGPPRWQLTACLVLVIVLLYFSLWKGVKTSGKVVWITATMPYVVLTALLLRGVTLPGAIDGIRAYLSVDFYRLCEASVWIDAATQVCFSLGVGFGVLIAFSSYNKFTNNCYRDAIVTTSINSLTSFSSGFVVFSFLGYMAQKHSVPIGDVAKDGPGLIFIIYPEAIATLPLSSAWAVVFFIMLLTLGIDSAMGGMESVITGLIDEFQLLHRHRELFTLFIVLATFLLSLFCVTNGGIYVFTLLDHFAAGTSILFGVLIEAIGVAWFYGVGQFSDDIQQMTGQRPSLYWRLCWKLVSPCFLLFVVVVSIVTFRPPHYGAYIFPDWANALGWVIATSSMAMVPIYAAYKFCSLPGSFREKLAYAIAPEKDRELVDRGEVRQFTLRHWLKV", "chain of UniProt P13267 (whole entry, looked up)": "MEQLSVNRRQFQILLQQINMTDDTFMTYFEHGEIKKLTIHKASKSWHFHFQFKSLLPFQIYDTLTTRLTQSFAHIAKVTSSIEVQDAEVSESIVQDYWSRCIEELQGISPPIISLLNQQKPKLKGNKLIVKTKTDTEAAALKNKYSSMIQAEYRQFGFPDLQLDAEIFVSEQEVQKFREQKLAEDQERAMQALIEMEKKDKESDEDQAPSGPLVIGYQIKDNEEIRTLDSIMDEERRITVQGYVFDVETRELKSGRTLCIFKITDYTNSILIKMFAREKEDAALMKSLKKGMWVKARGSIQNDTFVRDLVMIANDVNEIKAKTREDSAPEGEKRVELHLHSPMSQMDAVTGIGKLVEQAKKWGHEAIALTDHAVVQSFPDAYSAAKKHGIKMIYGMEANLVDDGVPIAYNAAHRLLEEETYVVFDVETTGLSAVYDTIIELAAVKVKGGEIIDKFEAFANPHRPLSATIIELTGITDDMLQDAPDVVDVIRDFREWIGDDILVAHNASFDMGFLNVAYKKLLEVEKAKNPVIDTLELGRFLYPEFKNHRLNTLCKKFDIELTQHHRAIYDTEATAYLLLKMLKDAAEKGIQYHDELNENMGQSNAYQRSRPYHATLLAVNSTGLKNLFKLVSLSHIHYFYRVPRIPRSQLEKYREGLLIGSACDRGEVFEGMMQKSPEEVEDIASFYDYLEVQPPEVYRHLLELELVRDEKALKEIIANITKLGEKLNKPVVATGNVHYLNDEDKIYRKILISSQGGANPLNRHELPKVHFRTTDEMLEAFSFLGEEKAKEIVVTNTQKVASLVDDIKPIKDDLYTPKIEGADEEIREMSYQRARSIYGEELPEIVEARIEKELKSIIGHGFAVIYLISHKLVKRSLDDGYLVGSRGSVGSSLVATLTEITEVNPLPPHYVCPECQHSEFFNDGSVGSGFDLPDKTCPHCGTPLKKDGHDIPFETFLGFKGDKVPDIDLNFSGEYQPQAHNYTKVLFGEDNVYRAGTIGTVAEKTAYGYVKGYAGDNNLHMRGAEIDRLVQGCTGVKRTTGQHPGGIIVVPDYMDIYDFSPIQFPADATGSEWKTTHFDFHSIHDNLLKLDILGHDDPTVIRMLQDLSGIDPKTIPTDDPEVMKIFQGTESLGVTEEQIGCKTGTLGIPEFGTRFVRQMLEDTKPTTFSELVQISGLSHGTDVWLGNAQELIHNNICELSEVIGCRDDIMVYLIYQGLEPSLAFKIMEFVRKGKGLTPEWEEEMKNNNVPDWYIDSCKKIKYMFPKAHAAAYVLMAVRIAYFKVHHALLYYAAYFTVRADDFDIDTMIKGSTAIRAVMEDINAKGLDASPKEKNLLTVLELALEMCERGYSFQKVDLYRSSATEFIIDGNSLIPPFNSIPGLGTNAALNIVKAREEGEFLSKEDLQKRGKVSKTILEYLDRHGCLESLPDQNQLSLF", "chain of UniProt P21397 (whole entry, looked up)": "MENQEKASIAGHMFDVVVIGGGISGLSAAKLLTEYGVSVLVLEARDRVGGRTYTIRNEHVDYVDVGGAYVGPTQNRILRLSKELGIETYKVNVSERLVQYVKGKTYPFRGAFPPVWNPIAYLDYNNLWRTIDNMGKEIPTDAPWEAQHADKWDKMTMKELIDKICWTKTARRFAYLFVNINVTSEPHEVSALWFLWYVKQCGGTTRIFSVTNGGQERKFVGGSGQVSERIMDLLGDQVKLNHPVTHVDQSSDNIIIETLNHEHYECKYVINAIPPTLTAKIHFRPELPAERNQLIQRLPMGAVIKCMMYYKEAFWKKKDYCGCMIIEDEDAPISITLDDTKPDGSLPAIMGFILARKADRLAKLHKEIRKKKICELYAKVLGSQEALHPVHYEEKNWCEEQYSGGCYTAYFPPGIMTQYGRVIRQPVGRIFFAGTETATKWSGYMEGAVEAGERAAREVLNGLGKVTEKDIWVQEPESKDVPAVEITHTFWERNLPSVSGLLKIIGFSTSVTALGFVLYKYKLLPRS", "chain of UniProt P32238 (whole entry, looked up)": "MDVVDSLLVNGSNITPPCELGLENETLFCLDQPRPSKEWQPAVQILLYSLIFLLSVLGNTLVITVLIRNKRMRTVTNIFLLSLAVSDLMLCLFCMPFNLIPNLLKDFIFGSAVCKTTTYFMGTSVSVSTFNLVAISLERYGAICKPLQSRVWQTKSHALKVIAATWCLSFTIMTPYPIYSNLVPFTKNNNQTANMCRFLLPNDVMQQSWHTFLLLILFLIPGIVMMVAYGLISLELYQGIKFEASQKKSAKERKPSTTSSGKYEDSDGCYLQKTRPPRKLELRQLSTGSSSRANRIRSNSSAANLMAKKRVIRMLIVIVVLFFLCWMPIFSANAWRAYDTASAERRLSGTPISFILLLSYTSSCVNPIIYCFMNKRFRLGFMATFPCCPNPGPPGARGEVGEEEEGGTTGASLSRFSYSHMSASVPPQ", "chain of UniProt Q15746 (whole entry, looked up)": "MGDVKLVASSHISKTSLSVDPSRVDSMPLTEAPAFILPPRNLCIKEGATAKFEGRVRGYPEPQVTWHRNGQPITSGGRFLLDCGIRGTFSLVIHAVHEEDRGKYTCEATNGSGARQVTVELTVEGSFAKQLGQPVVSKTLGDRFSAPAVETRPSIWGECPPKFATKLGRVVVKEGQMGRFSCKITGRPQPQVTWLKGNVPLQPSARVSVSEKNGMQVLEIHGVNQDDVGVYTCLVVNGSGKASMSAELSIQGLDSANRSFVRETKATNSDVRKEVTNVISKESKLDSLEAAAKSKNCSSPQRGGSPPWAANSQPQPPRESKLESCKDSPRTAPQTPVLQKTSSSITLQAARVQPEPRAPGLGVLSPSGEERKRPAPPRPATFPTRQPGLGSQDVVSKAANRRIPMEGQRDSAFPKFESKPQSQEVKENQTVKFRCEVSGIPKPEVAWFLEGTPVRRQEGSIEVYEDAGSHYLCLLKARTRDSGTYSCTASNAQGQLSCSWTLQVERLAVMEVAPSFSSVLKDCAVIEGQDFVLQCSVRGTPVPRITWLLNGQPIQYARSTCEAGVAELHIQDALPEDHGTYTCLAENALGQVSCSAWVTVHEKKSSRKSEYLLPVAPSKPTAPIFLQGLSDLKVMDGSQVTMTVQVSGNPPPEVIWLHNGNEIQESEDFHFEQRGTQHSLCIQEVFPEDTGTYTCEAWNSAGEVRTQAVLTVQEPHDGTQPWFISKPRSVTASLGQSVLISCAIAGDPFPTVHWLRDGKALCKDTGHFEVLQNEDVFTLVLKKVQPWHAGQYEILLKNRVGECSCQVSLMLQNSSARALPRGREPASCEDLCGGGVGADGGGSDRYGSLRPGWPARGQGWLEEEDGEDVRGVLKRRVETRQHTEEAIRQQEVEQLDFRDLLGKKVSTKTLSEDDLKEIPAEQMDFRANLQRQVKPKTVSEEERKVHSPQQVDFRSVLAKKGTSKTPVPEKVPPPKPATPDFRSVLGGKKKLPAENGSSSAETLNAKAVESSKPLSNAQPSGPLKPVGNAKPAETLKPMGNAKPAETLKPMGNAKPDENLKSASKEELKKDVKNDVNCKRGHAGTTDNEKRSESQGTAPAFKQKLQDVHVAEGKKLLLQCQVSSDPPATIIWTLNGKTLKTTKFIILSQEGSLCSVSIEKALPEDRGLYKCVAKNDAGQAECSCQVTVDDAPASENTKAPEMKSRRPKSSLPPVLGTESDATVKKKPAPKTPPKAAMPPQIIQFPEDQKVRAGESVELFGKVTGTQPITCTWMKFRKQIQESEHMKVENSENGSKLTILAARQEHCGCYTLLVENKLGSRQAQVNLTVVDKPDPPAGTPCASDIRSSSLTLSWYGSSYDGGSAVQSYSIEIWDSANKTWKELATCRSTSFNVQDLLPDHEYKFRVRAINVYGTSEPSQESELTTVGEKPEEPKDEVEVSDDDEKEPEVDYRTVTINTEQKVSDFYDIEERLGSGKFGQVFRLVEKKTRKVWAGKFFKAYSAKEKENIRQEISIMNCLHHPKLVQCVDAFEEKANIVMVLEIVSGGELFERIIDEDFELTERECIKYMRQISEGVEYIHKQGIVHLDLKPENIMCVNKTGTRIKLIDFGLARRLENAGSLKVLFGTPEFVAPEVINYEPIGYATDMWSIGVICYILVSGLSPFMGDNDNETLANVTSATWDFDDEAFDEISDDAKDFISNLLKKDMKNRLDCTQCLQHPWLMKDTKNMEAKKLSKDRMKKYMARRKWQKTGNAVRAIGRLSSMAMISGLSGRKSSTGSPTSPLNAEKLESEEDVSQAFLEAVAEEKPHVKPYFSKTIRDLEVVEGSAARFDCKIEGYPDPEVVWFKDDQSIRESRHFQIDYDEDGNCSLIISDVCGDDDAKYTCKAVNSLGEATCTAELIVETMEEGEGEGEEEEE"}
{"Compound": "C/C(=C\\C(=O)OCCCCCCCC(=O)Nc1c2sscc-2[nH]c1=O)[C@@H](O)[C@@H]1OC[C@H](C/C=C/[C@@H](C)[C@H](C)O)[C@@H](O)[C@H]1O", "tested on": "Isoleucine--tRNA ligase (ileS, Staphylococcus aureus, UniProt Q5HGN8)", "test": "adenylation activity, competitive inhibitor, ATP-PPi exchange", "conditions": "together with: L-isoleucine", "endpoint": "Ki", "value": "0.00037 ± 7e-05 µM"}
{"Compound": "O=C(O)c1cccc(Cc2c[nH]c3cc(-c4ccc5cc[nH]c5c4)ccc23)c1", "tested on": "Envelope glycoprotein gp160, gp41 hydrophobic pocket (env, Human immunodeficiency virus type 1 group M subtype B, UniProt P04578, K574X)", "endpoint": "Ki", "value": "1.2 µM"}
{"Compound": "CC[C@H](C)[C@@H]1NC(=O)[C@@H]2CCCN2C(=O)[C@H](CC(C)C)NC(=O)[C@H](CC(C)C)NC(=O)CNC(=O)[C@@H](NC(=O)[C@@H](NC(=O)[C@H](CC(=O)O)NC(=O)CNC(=O)[C@@H](NC(=O)[C@H](C)NC(=O)CNC(=O)[C@H](CCCCN)NC(=O)[C@H](CC(C)C)NC(=O)[C@H](CC(C)C)NC(=O)[C@H](CCCCN)NC(=O)CNC(=O)[C@@H](NC(=O)[C@@H](N)CC(C)C)C(C)C)C(C)C)C(C)C)CSSC[C@@H](C(=O)O)NC1=O", "test": "RNA-seq, measured: Tgif1", "test system": "mouse, traumatic brain injury model, frontal cortex and hippocampus", "conditions": "dose not given", "how to read": "relative to: TBI alone", "endpoint": "log2 fold change", "value": -2.09}
{"Compound": "Nc1ncnc2c1ncn2[C@@H]1O[C@H](COP(=O)(O)OP(=O)(O)OP(=O)(O)O)[C@@H](O)[C@H]1O", "tested on": "GTP 3',8-cyclase (moaA, Staphylococcus aureus, UniProt P69848)", "test": "enzyme activity, GTP-competitive inhibitor, Cheng-Prusoff", "conditions": "together with: GTP Km 3.1 µM", "endpoint": "Ki", "value": "106 ± 8 µM"}
{"Compound": "c1ccc(C(OCCN2CCNCC2)c2ccccc2)cc1", "tested on": "SLC6A3 W84L", "test": "binding, [3H]CFT binding inhibition", "test system": "HEK293", "conditions": "15 min, 20 °C, together with: 130 mM Na+", "endpoint": "Ki", "value": "0.556 ± 0.0715 µM"}
{"Compound": "CN(C)C(=O)C(CCN1CCC(O)(c2ccc(Cl)cc2)CC1)(c1ccccc1)c1ccccc1", "tested on": "Alpha-1-acid glycoprotein 2 (Homo sapiens, UniProt P19652)", "test": "competitive inhibitor, ultrafiltration", "conditions": "15 min, 37 °C, together with: [3H]S-disopyramide", "endpoint": "Ki", "value": "11.9 µM"}
{"Compound": "C[C@@H](O)[C@H](NC(=O)c1ccc(-c2ccc(Br)cc2)cc1)C(=O)NO", "tested on": "UDP-3-O-acyl-N-acetylglucosamine deacetylase C40S", "test": "enzyme activity, inhibitor", "endpoint": "Ki", "value": "0.000741 µM"}
{"Compound": "C[C@@H](O)[C@@H](CO)NC(=O)[C@@H](CCCNC(=N)N)NC(=O)[C@@H]1CCCN1C(=O)[C@@H]1CSSC[C@H](NC(=O)[C@H](Cc2ccccc2)NC(=O)CN2CCN(CC(=O)O)CCN(CC(=O)O)CCN(CC(=O)O)CC2)C(=O)N[C@@H](Cc2ccc(O)cc2)C(=O)N[C@@H](Cc2ccccc2)C(=O)N[C@@H](CCC(N)=O)C(=O)N[C@@H](CC(N)=O)C(=O)N1 [gallium-68 labelled]", "test system": "Wistar rat, healthy, Pituitary gland", "conditions": "intravenous, 8 MBq, 60 min, mean", "endpoint": "tissue uptake", "value": "0.5 %ID/g"}
{"Compound": "CN1[C@@H]2CC[C@H]1C[C@@H](OC(=O)c1ccccc1)C2", "tested on": "SLC6A3 W84L", "test": "binding, [3H]CFT binding inhibition", "test system": "HEK293", "conditions": "15 min, 20 °C, together with: 130 mM Na+", "endpoint": "Ki", "value": "27.7 ± 0.878 µM"}
{"Compound": "COc1cc(Nc2ncc(F)c(Nc3ccc4c(n3)NC(=O)C(C)(C)O4)n2)cc(OC)c1OC", "tested on": "Cholecystokinin receptor type A (CCKAR, Homo sapiens, UniProt P32238)", "endpoint": "IC50", "value": "> 10 µM"}
{"Compound": "CCc1cc(Nc2cc(=O)n(CCCCO)c(=O)[nH]2)ccc1C", "tested on": "DNA polymerase III PolC-type", "test": "enzyme activity, inhibitor", "conditions": "truncated polymerase, no dGTP, 4% DMSO", "endpoint": "Ki", "value": "0.13 µM"}
{"Compound": "C[C@H]1CN(c2n[nH]c3nc(N[C@H]4CC[C@H](NS(=O)(=O)CCC(F)(F)F)CC4)ncc23)CCO1", "tested on": "Myosin light chain kinase, smooth muscle (MYLK, Homo sapiens, UniProt Q15746)", "test": "inhibitor, Kinobeads competition profiling", "conditions": "0.032 µM", "how to read": "relative to: vehicle", "endpoint": "relative abundance", "value": 1.02}
{"Compound": "C[C@@H](O)[C@H](NC(=O)c1ccc(C#CC#Cc2ccccc2)cc1)C(=O)NO", "tested on": "UDP-3-O-acyl-N-acetylglucosamine deacetylase C40S", "test": "bio-layer interferometry", "conditions": "298 K", "endpoint": "Ki", "value": "0.000655 µM"}
{"Compound": "Cn1cnc2nc(NCc3ccc(Cl)c(Cl)c3)[nH]c(=O)c21", "tested on": "DNA polymerase III PolC-type", "test": "inhibitor", "endpoint": "Ki", "value": "0.32 µM"}
{"Compound": "O=C(O)CNCP(=O)(O)O", "tested on": "EPSP synthase (Zea mays, UniProt A0A1D6NVZ6, K358R/P168S/T164I)", "endpoint": "Ki", "value": "841 ± 61 µM"}
{"Compound": "O=C(c1ccc(Cl)cc1)N1CCN2C(=O)N(OC(=O)N3CCOc4ccccc43)C(=O)C2C1 (stereo not shown)", "tested on": "Acylamino-acid-releasing enzyme (APEH, Homo sapiens, UniProt P13798)", "test": "enzyme activity, inhibitor, MS-based ABPP", "test system": "SW-620 in situ", "conditions": "10 µM, 2 h, 37 °C", "how to read": "relative to: compound over DMSO, lower = stronger inhibition", "endpoint": "median ratio", "value": 1.13}
{"Compound": "CC[C@H](C)[C@H](NC(=O)[C@H](Cc1ccccc1)NC(=O)[C@H](CCC(=O)O)NC(=O)[C@H](CCCNC(=N)N)NC(=O)[C@H](C)NC(=O)[C@H](C)NC(=O)[C@H](CCC(N)=O)NC(=O)[C@H](CCC(=O)O)NC(=O)[C@H](CCC(=O)O)NC(=O)[C@H](CC(C)C)NC(=O)[C@H](Cc1ccc(O)cc1)NC(=O)[C@H](CO)NC(=O)[C@H](CO)NC(=O)[C@@H](NC(=O)[C@H](CC(=O)O)NC(=O)[C@H](CO)NC(=O)[C@@H](NC(=O)[C@H](Cc1ccccc1)NC(=O)[C@@H](NC(=O)CNC(=O)[C@H](CCC(=O)O)NC(=O)[C@H](C)NC(=O)CCc1c[nH]cn1)[C@@H](C)O)[C@@H](C)O)C(C)C)C(=O)N[C@@H](C)C(=O)N[C@@H](Cc1c[nH]c2ccccc12)C(=O)N[C@@H](CC(C)C)C(=O)N[C@H](C(=O)N[C@@H](CCCNC(=N)N)C(=O)NCC(=O)N[C@@H](CCCNC(=N)N)C(=O)N[C@@H](CCCCNC(=O)COCCOCCNC(=O)COCCOCCNC(=O)CC[C@H](NC(=O)CCCCCCCCCCCCCCCCC(=O)O)C(=O)O)C(=O)NCC(=O)NCC(=O)N[C@@H](CO)C(=O)N[C@@H](CCCCNc1c(NCCCCCN(O)C(=O)CCC(=O)NCCCCCN(O)C(=O)CCC(=O)NCCCCCN(O)C(C)=O)c(=O)c1=O)C(=O)O)C(C)C [zirconium-89 labelled]", "test system": "rat, femur", "conditions": "intravenous, 3 nmol/kg, 168 h", "endpoint": "tissue uptake", "value": "0.18 %ID/g"}
{"Compound": "C=C(C)[C@H](CC=C(C)C)Cc1c(O)cc(OC)c2c1O[C@H](c1ccc(O)cc1O)CC2=O", "tested on": "Amine oxidase [flavin-containing] A (MAOA, Homo sapiens, UniProt P21397)", "test": "enzyme activity, inhibitor, MAO-Glo", "endpoint": "Ki", "value": "65.1 ± 3.53 µM"}
{"Compound": "[O]=[V]([OH])([OH])[OH]", "tested on": "Alkaline phosphatase PafA (pafA, Elizabethkingia meningoseptica, UniProt Q9KJX5)", "conditions": "pH 8", "endpoint": "Ki", "value": "0.73 µM"}
{"Compound": "COc1cc2c(Oc3ccc4[nH]c(C)cc4c3F)ccnc2cc1OCC1(N)CC1", "test system": "paediatric recurrent refractory sarcoma", "conditions": "8 mg/kg", "endpoint": "grade 3 Appendicitis", "value": "0%"}
{"Compound": "CN1CCN(CCOC(c2ccccc2)c2ccccc2)CC1", "tested on": "Sodium-dependent dopamine transporter (SLC6A3, Homo sapiens, UniProt Q01959, D313N)", "test": "binding", "test system": "HEK293 expressing DAT D313N", "conditions": "0 mM Na+ with NMDG-Cl buffer, together with: [3H]CFT", "endpoint": "Ki", "value": "0.338 ± 0.0196 µM"}
{"Compound": "C=CC(O)CO (stereo not shown)", "tested on": "Cytochrome P450 2E1 (Cyp2e1, Rattus norvegicus, UniProt P05182)", "test": "4-nitrophenol oxidation, inhibitor", "test system": "F344 rat liver microsomes", "conditions": "30 min, pH 7.4, together with: 4-nitrophenol", "endpoint": "Ki", "value": "640 µM"}
{"note": "For quick reference, copied from above:"}
{"Compound": "CCc1cc(Nc2cc(=O)n(CCCCO)c(=O)[nH]2)ccc1C", "tested on": "DNA polymerase III PolC-type", "test": "enzyme activity, inhibitor", "conditions": "truncated polymerase, no dGTP, 4% DMSO", "endpoint": "Ki", "value": "0.13 µM"}
{"Compound": "C[C@H]1CN(c2n[nH]c3nc(N[C@H]4CC[C@H](NS(=O)(=O)CCC(F)(F)F)CC4)ncc23)CCO1", "tested on": "Myosin light chain kinase, smooth muscle (MYLK, Homo sapiens, UniProt Q15746)", "test": "inhibitor, Kinobeads competition profiling", "conditions": "0.032 µM", "how to read": "relative to: vehicle", "endpoint": "relative abundance", "value": 1.02}
